Published values from different studies.
Compare with care: the assays were run in different laboratories. Values joined by “and” are separate records of one study, mostly repeats; a detail may differ.
Target: G protein-coupled receptor kinase 3 (GRK3, Homo sapiens, UniProt P35626)

For CCn1cc(C(=O)O)c(=O)c2c(N)c(F)c(NC3CCCCC3)cc21, the inhibition was -0.3% (kinase activity; 0.1 µM, added: ATP at Km).
CN1CC[C@@H](COc2cnc(C#N)cc2-c2ccn3nc(NC(=O)C4CC4)cc3c2)C1 has an inhibition of -8% (enzyme activity, inhibitor; 1 µM).
COc1c(Cl)cccc1Nc1c(-c2ccncc2C#C[C@@]2(C)CCCN2C(=O)/C=C/CN(C)C)[nH]c2c1C(=O)NCC2 gave a remaining binding of 61% (binding, competition with immobilised ligand; 3 µM).
With Cc1cnc2nc1Nc1cccc(c1)COC/C=C/COCc1cc(ccc1OCCN1CCOCC1)N2 the remaining binding was 87% (binding, competition with immobilised ligand; 0.1 µM).
COCC12C(=O)NC3C4(C(OC)CC1O)C1CC5(O)C(OC)C(O)C(OC(C)=O)(C1C5OC(=O)c1ccccc1)C3(O)C(OC)C24 (stereo not shown) gave a remaining activity of 96% and 94% (kinase activity, inhibitor, ProQinase kinase profiling; 25 µM; relative to: control).
C=CC(=O)N1CCCC(n2c(=O)c3ncccc3n(Cc3ccc(Oc4ccccc4)cc3)c2=O)C1 (stereo not shown) has a remaining binding of 47% (cell-free assay, competition with immobilised ligand; 1 µM).
NC(=O)[C@@H](O)C[C@H]1CCc2sc3ncnc(O[C@H]4CC[C@H](N5CCOCC5)CC4)c3c21 has an inhibition of 1% (enzyme activity, inhibitor; 10 µM).
C=CC(=O)N1Cc2nc(-c3cc(-c4cc(Cl)cnc4Cl)c(F)cc3F)n(-c3ccncn3)c2C1 gave an inhibition of 5.7% (cell-free assay, inhibitor; 1 µM).
For COc1cc(Nc2nccc(-c3cnn4nc(OC)ccc34)n2)cc(C(F)(F)F)c1, the remaining binding was 88% (binding, competition with immobilised ligand; 1 µM).
CN1CCN(Cc2ccc(-c3ccc(CO[C@H]4CCC[C@@H]4NC(=O)c4cc(-c5cnn(C)c5)cnc4N)cc3)cc2)CC1 has an inhibition of -3% (enzyme activity, inhibitor; 0.1 µM).

Repeated from above:
C=CC(=O)N1Cc2nc(-c3cc(-c4cc(Cl)cnc4Cl)c(F)cc3F)n(-c3ccncn3)c2C1 gave an inhibition of 5.7% (cell-free assay, inhibitor; 1 µM).
